# Assay results of several laboratories.
# Lines come from different studies, so protocols differ. Values joined by “and” are separate records of one study, mostly repeats; a detail may differ. ± gives the spread as reported.
Compound,tested on,test,test system,setting,how to read,measurement,value
CCOc1c([C@H](C)n2nc(C)c3c(N)ncnc32)cc(Cl)c(F)c1[C@@H]1CNC(=O)C1,,,"patients, monotherapy","oral, 20 mg once daily, cycle 1 day 15",,Tmax median,1 h
N#Cc1ccc2c(c1)[C@H]1CCCN(C(=O)c3ccc4[nH]cnc4c3)[C@H]1C2,,,"human, plasma","oral, 20 mg once daily, day 28 steady state",,CL/F steady state,45.9 mL/min
O=C(Nc1cnccc1Cl)N1CCN(Cc2ccc3c(c2)OC(F)(F)O3)CC1,,multiple ascending dose,young men,"25 mg, treatment-emergent adverse events",,postural dizziness incidence,0%
CCN1CCN(Cc2ccc(NC(=O)c3ccc(C)c(NC(=O)c4cncc(-c5cccs5)c4)c3)cc2C(F)(F)F)CC1,,,"C57BL/6 mice, epithelial lining fluid","intraperitoneal, 30 mg/kg",,Tmax,1 h
Cc1ccc2nc(-c3ccccn3)c(CN(CC(C)C)c3cccc(C(F)(F)F)c3)n2c1,,,"peritoneal macrophages, Swiss mice","5 days, 5% fetal calf serum",,CC50,31.6 µM
N[C@@H]1c2ccccc2OC12CCN(c1cnc3c(N4CCCc5ncccc54)n[nH]c3n1)CC2,,,"advanced metastatic solid tumour patients, plasma","oral, 10 mg once daily, cycle 1 day 15, geometric mean",,AUC(0-tau),1270 ng·h/mL
OC[C@H]1O[C@@H](c2ccc(F)c(Cc3cc4ccccc4s3)c2)[C@H](O)[C@@H](O)[C@@H]1O,,,"Japanese type 2 diabetes patients, plasma","oral, 100 mg/day, day 1",,renal clearance,1.95 ± 0.445 mL/min
Cc1ccc([C@@H]2O[C@H](CO)[C@@H](O)[C@H](O)[C@H]2O)cc1Cc1ccc(-c2ccc(F)cc2)s1,,,Japanese type 2 diabetes patients,"100 mg, day 18, 24 h urine collection",relative to: baseline,urinary chloride excretion change,-52.7 mEq
COc1ccc([C@@H](O)c2cc(-c3ncnc4cc(N5CCOCC5)ccc34)c(F)cc2Cl)nn1,,,locally advanced rectal cancer patients,"250 mg, together with: capecitabine and radiotherapy",,nausea TEAE incidence,33%
C[C@H]1Oc2cc(cnc2N)-c2c(nn(C)c2C#N)CN(C)C(=O)c2ccc(F)cc21,,population PK,"normal renal function, plasma","oral, 100 mg, mean, single dose",,clearance,164 mL/min
Cl.[2H]C([2H])([2H])CC(=O)c1cnc(NC(=O)C2CC2)cc1Nc1cccc(-c2ncn(C([2H])([2H])[2H])n2)c1OC,,geometric mean,human,"oral, 20 mg once daily, day 7, fasted, liquid, multiple dose",,AUC(0-tau),1310 ng·h/mL
COc1ccnc(C(=O)NCC(=O)O)c1O,,aerobic dark soil incubation,soil,"geometric mean of 4 soils, persistence endpoint",,DT50,12 days
Cc1ncsc1-c1ccc(CNC(=O)[C@@H]2C[C@@H](O)CN2C(=O)[C@@H](NC(=O)CCCCCCCCCC(=O)N2CCN(CC[C@H](NC(=O)C3(N)CCN(c4ncnc5[nH]ccc45)CC3)c3ccc(Cl)cc3)CC2)C(C)(C)C)cc1,,,"mouse, tumour","intraperitoneal, 75 mg/kg once daily for 5 days, 2 h after last dose",,tumour concentration,~500 nM
CNC(=O)c1ccc(-c2cnc3ncc(Cc4ccc5ncccc5c4)n3n2)cc1F,,,Japanese patients,"oral, 400 mg, grade 3/4",,γGT increased patients,1%
Nc1ncnc2c1ncn2[C@H]1C[C@@H]2OP(=O)(O)OC[C@H]3O[C@@H](n4cnc5c(N)ncnc54)C[C@@H]3OP(=O)(O)OC[C@H]2O1,,,"non-tumor-bearing mice, serum","intravenous, 1 mg/kg, toxicity study",,total cholesterol,4.27 ± 1.13 mmol/L
C=CCn1c(=O)c2cnc(Nc3ccc(N4CCN(C)CC4)cc3)nc2n1-c1ccc2c(n1)[C@@](O)(CC)CC2,,,"A-427, female NOD/SCID mouse xenograft, plasma","oral, 80 mg/kg once daily",,Cmax,5100 ng/mL
CCO[C@H]1CCN(Cc2c(OC)cc(C)c3[nH]ccc23)[C@H](c2ccc(C(=O)O)cc2)C1,,,"human mild hepatic impairment, plasma","oral, 200 mg single dose, median",,unbound half-life,13.9 h
N[C@@H](CC(=O)O)C(=O)OC(C(=O)O)c1ccccc1[N+](=O)[O-].O=C(O)C(F)(F)F (mixture of isomers),,"1H NMR, dark",50 mM sodium phosphate,"concentration not given, pH 7.0, room temperature, 12.5% DMSO-d6",,"hydrolysis half-life, A isomer",13.9 ± 0.2 h
CCCCCCCCCCCCCCCC(=O)N[C@@H](CCC(=O)NCCCC[C@H](NC(=O)[C@H](C)NC(=O)[C@H](C)NC(=O)[C@H](CCC(N)=O)NC(=O)CNC(=O)[C@H](CCC(=O)O)NC(=O)[C@H](CC(C)C)NC(=O)[C@H](Cc1ccc(O)cc1)NC(=O)[C@H](CO)NC(=O)[C@H](CO)NC(=O)[C@@H](NC(=O)[C@H](CC(=O)O)NC(=O)[C@H](CO)NC(=O)[C@@H](NC(=O)[C@H](Cc1ccccc1)NC(=O)[C@@H](NC(=O)CNC(=O)[C@H](CCC(=O)O)NC(=O)[C@H](C)NC(=O)[C@@H](N)Cc1cnc[nH]1)[C@@H](C)O)[C@@H](C)O)C(C)C)C(=O)N[C@@H](CCC(=O)O)C(=O)N[C@@H](Cc1ccccc1)C(=O)N[C@H](C(=O)N[C@@H](C)C(=O)N[C@@H](Cc1c[nH]c2ccccc12)C(=O)N[C@@H](CC(C)C)C(=O)N[C@H](C(=O)N[C@@H](CCCNC(=N)N)C(=O)NCC(=O)N[C@@H](CCCNC(=N)N)C(=O)NCC(=O)O)C(C)C)[C@@H](C)CC)C(=O)O,,population PK model,"human, plasma",subcutaneous,,V/F,24.6 L
C#CCCC(=O)SCCNC(=O)CCNC(=O)[C@H](O)C(C)(C)COP(=O)(O)OP(=O)(O)OC[C@H]1O[C@@H](n2cnc3c(N)ncnc32)[C@H](O)[C@@H]1OP(=O)(O)O,HBL-1,,,"0.5 µM, 120 h",,viability,122%
O=C(CCC(C(=O)[O-])N1CCN(C(CCC(=O)NCC(O)CO)C(=O)[O-])Cc2cccc(n2)CN(C(CCC(=O)NCC(O)CO)C(=O)[O-])CC1)NCC(O)CO.[Gd+3] (stereo not drawn),,LC-ICP-MS,human plasma,"pH 7.4, 37 °C",,dissociation rate,0.014 %/day
COC(=O)C(C(=O)OC)=S(NC(=O)C(C)(C)C)c1ccccc1 (stereo not drawn),,,human liver microsomes,,relative to: hepatic blood flow,metabolic stability,> 89%
CC1(C)CCC(CN2CCN(c3ccc(C(=O)NS(=O)(=O)c4ccc(NCC5CCOCC5)c([N+](=O)[O-])c4)c(Oc4cnc5[nH]ccc5c4)c3)CC2)=C(c2ccc(Cl)cc2)C1,,,"human female, plasma",oral,,Vss,3.22 L/kg
CC[C@H](C)CCCCC(=O)N[C@@H](CCN)C(=O)N[C@H](C(=O)N[C@@H](CCN)C(=O)N[C@H]1CCNC(=O)[C@H]([C@@H](C)O)NC(=O)[C@H](CCN)NC(=O)[C@H](CCN)NC(=O)[C@H](CC(C)C)NC(=O)[C@@H](Cc2ccccc2)NC(=O)[C@H](CCN)NC1=O)[C@@H](C)O,,refers to: gastrointestinal disorders,long-term IHD patients,"intravenous, 0.75 mg/kg",,adverse event incidence,100%
O=C(Nc1nc2cccc(-c3ccc(CN4CCS(=O)(=O)CC4)cc3)n2n1)C1CC1,,refers to: thrombocytopenia,rheumatoid arthritis patients,"oral, 300 mg once daily, 4 weeks, any relatedness",,treatment-emergent adverse events,0%
OC[C@H]1O[C@@H](c2ccc(Cl)c(Cc3ccc(O[C@H]4CCOC4)cc3)c2)[C@H](O)[C@@H](O)[C@@H]1O,,,"Japanese type 1 diabetes patients, blood","2.5 mg, day 28",relative to: baseline,change in eGFR,2.82 mL/min/1.73 m²
C=CC(=O)Nc1cc(Nc2nccc(-c3cn(C)c4ccccc34)n2)c(OC)cc1N(C)CCN(C)C,,storage stability,human dried blood spot samples,"30 d, -80 °C, MQC level",relative to: nominal concentration,percentage recovery,41%
COc1ccc(C[C@@H](C)[C@@H](C)Cc2ccc(OC)c(OC)c2)cc1OC,,,"beagle dog female, plasma","oral, 1000 mg/kg/day, day 28",,AUC(0-t),15700 ± 4880 ng·h/mL
Cc1cc(NC2CCN(C(=O)OC3CCN(C(=O)/C=C/CN(C)C)C3)CC2)n2ncc(C(C)C)c2n1 (stereo not drawn),,"CTCAE v4.0, refers to: Flatulence",patients with advanced solid tumours,"oral, dose not given, TIW, grade 3 or higher",,patients with TEAE,0%
COc1ccc(CNc2nc(-c3ccc(C(=O)O)cc3)nc3sc4ccccc4c23)cc1Cl,,,NSG mice,"dose not given, day 2",,body weight,21.3 g and 20.5 g and 19 g and 18.2 g
CNC(=O)c1ccc(-c2cnc3ncc(Cc4ccc5ncccc5c4)n3n2)cc1F,,refers to: Fatigue,cancer patients,"oral, 600 mg twice daily, all expansion cohorts, grade 3-4",,patients with adverse event,8%
Cc1nc(-c2ccc(OCC(C)C)c(C#N)c2)sc1C(=O)O,,,healthy Chinese subjects,"oral, 40 mg single, fasting",,participants with AEs grade 3 or above,0%
OCc1nc2ccc(NCc3ccc(C(F)(F)F)cc3)cc2[nH]1,,rapid equilibrium dialysis,mouse brain homogenate,"2 µM, 4 h, 37 °C",,brain homogenate binding,95.5%
C=CCN1CC(=O)N2[C@@H](Cc3ccc(O)cc3F)C(=O)N(Cc3cccc(N4CC(N5CCN(CC)CC5)C4)n3)C[C@@H]2N1C(=O)NCc1ccccc1,,,advanced solid tumour patients,"oral, 100 mg twice daily, grade ≥3, dose-escalation",,any treatment-related adverse event,0%
COc1cccc(OC)c1-c1cc(C(=O)NC2(C(=O)O)C3CC4CC(C3)CC2C4)nn1-c1ccc(C(=O)N(C)CCCN(C)CCCN(C)C(=O)CN2CCN(CC(=O)[O-])CCN(CC(=O)[O-])CCN(CC(=O)[O-])CC2)cc1C(C)C.[177Lu+3] (stereo not drawn),,,mouse HT-29 xenograft,"72 h, biodistribution",relative to: tumour over small intestine,tumour-to-small intestine ratio,58.6
O=C(O)c1cccc(C(=O)O)c1,,,betaine/ethylene glycol DES-water,DES mass fraction 0.50,,apparent dissolution enthalpy,2.77 kcal/mol
COc1ccnc(C(=O)N[C@@H](CO)C(=O)O)c1OCOC(=O)C(C)C,,,"Swiss Lake sand sediment, aerobic dark",20 °C,,DT50 water,5.66 days
CCN1/C(=C/C(C)=O)Sc2ccc(F)cc21,,,cynomolgus monkey,"oral, 30 mg/kg, 0.5 h post-dose",relative to: pre-dose,systolic blood pressure change,99.1 ± 3.6%
O=C1NCCc2nc(OCc3cccc(F)c3)ccc21,,refers to: Ptosis,Sprague-Dawley rat male,"oral, 100 mg/kg, 4 h",direction not given,Irwin test score,0
CC(C)n1c(Nc2cccnc2)nc2cnc(Nc3ccc(N4CCN(C)CC4)cc3)nc21,,refers to: nausea,healthy male subjects,"oral, 150 mg, study, together with: rifampin",,subjects with adverse event,0%
O=C(O)CCC(=O)O.[2H]C([2H])([2H])Oc1cc(C)c2[nH]ccc2c1CN1CC[C@@H](C2CC2)C[C@H]1c1ccc(C(=O)O)cc1,,,healthy Chinese subjects,"400 mg, single ascending dose",,TEAE urine leukocyte positive,0%
O=C(Nc1ccc(OC(F)(F)Cl)cc1)c1cnc(N2CC[C@@H](O)C2)c(-c2ccn[nH]2)c1,,,human patients,"oral, dose not given, dose-finding, any grade",relative to: records,lipase increase incidence,9.2%
Cc1cccc(CNC(=O)c2cn(CCNC(=O)c3ccccc3Sc3c([N+](=O)[O-])ncn3C)c3cc4c(cc3c2=O)OC(F)(F)O4)n1,,,"Sprague-Dawley rat, male, plasma","intramuscular, 30 mg/kg of parent drug",,bioavailability,24.1 ± 11.3%
CC(C)C[C@H](NC(=O)[C@H](CC(C)C)NC(=O)[C@H](Cc1c[nH]c2ccccc12)NC(=O)[C@H](CCC(=O)O)NC(=O)[C@@H](NC(=O)[C@H](Cc1ccccc1)NC(=O)[C@H](CCC(=O)O)NC(=O)[C@H](CCCCNC(=O)COCCOCCNC(=O)COCCOCCNC(=O)CC[C@H](NC(=O)CCCCCCCCCCCCCCCCCCC(=O)O)C(=O)O)NC(=O)[C@H](C)NC(=O)[C@H](CCCCN)NC(=O)[C@H](CCCCN)NC(=O)[C@H](CCC(=O)O)NC(=O)[C@H](CC(=O)O)NC(=O)[C@H](CC(C)C)NC(=O)[C@H](Cc1ccc(O)cc1)NC(=O)[C@H](CCCCN)NC(=O)[C@H](CO)NC(=O)[C@H](Cc1ccc(O)cc1)NC(=O)[C@H](CC(=O)O)NC(=O)[C@H](CO)NC(=O)[C@@H](NC(=O)[C@H](Cc1ccccc1)NC(=O)[C@@H](NC(=O)CNC(=O)[C@H](CCC(N)=O)NC(=O)C(C)(C)NC(=O)[C@@H](N)Cc1c[nH]cn1)[C@@H](C)O)[C@@H](C)O)C(C)C)C(=O)N[C@@H](CCC(=O)O)C(=O)NCC(=O)NCC(=O)N1CCC[C@H]1C(=O)N[C@@H](CO)C(=O)N[C@@H](CO)C(=O)NCC(N)=O,,,"human, plasma","subcutaneous, 16 mg once weekly, week 20, geometric mean",,"Cmax,ss",5430 ng/mL
CCO[C@H]1CCN(Cc2c(OC)cc(C)c3[nH]ccc23)[C@H](c2ccc(C(=O)O)cc2)C1,,,"PNH patients, active haemolysis","oral, 200 mg, 8 weeks, treatment",,incidence impaired fasting glucose,0%

# Some of these lines once more:
Compound,tested on,test,test system,setting,how to read,measurement,value
CC1(C)CCC(CN2CCN(c3ccc(C(=O)NS(=O)(=O)c4ccc(NCC5CCOCC5)c([N+](=O)[O-])c4)c(Oc4cnc5[nH]ccc5c4)c3)CC2)=C(c2ccc(Cl)cc2)C1,,,"human female, plasma",oral,,Vss,3.22 L/kg
O=C(Nc1ccc(OC(F)(F)Cl)cc1)c1cnc(N2CC[C@@H](O)C2)c(-c2ccn[nH]2)c1,,,human patients,"oral, dose not given, dose-finding, any grade",relative to: records,lipase increase incidence,9.2%
O=C(Nc1cnccc1Cl)N1CCN(Cc2ccc3c(c2)OC(F)(F)O3)CC1,,multiple ascending dose,young men,"25 mg, treatment-emergent adverse events",,postural dizziness incidence,0%
C=CC(=O)Nc1cc(Nc2nccc(-c3cn(C)c4ccccc34)n2)c(OC)cc1N(C)CCN(C)C,,storage stability,human dried blood spot samples,"30 d, -80 °C, MQC level",relative to: nominal concentration,percentage recovery,41%
